Assay results of several laboratories.
Each numbered part is a random draw from the data of one study; scales do not carry over between parts.
Sequence of UniProt Q15303 (whole entry, looked up): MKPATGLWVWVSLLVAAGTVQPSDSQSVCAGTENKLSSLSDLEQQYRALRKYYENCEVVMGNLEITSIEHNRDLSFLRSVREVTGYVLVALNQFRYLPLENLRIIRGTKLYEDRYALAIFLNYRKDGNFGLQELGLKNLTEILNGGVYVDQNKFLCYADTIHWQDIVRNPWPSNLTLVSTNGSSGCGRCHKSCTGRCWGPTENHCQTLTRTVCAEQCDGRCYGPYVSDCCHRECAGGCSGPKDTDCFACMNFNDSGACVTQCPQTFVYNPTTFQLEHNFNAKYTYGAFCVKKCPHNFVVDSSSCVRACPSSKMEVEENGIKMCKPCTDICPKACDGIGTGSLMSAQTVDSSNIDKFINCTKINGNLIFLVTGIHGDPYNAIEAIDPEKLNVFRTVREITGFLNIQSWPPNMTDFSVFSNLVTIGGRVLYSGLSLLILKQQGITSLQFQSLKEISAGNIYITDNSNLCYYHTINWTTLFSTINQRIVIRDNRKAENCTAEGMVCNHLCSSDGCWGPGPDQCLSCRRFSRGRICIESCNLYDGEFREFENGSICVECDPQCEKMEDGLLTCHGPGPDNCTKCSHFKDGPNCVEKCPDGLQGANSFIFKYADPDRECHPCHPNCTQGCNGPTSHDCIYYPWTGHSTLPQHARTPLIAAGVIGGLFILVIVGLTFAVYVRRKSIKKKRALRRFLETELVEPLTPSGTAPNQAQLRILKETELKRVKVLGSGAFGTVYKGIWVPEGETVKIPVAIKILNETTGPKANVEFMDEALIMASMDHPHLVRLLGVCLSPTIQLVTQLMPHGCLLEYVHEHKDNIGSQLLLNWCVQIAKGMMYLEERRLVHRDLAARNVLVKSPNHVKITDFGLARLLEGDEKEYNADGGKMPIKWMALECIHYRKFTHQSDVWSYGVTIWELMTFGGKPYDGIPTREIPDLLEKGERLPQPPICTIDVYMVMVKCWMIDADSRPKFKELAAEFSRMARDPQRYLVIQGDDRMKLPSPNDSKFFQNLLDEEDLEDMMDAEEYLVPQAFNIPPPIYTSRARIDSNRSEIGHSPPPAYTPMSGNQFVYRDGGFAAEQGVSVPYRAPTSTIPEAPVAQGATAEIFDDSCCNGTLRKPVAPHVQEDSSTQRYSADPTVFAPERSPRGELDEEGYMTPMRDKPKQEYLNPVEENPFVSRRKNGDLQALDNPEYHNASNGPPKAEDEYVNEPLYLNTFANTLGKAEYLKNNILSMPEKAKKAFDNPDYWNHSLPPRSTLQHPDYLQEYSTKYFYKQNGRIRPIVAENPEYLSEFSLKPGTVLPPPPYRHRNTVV
Sequence of UniProt Q04771 (whole entry, looked up): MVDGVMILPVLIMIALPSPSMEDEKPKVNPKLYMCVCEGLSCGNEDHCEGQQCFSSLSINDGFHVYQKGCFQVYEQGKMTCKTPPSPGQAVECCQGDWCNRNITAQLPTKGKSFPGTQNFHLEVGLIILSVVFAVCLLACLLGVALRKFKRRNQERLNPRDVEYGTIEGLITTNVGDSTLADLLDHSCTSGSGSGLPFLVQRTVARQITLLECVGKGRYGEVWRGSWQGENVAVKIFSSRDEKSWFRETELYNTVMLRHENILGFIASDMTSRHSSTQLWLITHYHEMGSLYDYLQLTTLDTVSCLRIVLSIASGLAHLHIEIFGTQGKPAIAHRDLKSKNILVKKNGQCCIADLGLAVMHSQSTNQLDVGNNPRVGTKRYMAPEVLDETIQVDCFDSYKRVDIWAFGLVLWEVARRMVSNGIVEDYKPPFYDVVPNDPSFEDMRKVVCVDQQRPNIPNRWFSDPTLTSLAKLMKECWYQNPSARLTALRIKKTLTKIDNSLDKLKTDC
Sequence of UniProt O43318 (whole entry, looked up): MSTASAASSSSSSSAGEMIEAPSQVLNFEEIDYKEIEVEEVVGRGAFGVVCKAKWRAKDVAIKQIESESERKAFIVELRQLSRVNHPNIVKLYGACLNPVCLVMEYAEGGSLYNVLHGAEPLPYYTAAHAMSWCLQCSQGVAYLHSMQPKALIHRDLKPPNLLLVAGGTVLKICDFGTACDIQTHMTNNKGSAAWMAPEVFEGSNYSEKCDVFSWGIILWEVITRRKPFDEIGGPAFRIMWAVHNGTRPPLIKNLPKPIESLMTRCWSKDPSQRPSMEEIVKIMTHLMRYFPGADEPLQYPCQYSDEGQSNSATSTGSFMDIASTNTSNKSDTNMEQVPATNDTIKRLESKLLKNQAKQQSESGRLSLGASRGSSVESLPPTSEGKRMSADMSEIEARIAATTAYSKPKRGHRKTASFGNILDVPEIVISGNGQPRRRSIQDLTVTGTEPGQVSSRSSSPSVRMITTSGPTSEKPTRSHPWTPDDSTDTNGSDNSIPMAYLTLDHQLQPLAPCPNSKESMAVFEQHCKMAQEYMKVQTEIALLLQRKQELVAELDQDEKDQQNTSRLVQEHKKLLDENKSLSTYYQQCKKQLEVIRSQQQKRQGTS
Sequence of UniProt P45985 (whole entry, looked up): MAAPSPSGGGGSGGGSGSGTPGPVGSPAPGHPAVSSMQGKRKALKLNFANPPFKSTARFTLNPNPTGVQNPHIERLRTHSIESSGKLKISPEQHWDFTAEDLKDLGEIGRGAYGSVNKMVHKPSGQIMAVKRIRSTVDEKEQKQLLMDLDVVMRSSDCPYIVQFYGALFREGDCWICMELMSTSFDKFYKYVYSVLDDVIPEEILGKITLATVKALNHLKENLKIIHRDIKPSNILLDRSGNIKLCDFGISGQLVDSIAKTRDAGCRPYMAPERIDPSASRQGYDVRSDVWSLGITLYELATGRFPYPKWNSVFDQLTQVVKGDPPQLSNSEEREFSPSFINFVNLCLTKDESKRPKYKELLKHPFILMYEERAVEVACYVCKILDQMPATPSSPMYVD
Sequence of UniProt Q9P286 (whole entry, looked up): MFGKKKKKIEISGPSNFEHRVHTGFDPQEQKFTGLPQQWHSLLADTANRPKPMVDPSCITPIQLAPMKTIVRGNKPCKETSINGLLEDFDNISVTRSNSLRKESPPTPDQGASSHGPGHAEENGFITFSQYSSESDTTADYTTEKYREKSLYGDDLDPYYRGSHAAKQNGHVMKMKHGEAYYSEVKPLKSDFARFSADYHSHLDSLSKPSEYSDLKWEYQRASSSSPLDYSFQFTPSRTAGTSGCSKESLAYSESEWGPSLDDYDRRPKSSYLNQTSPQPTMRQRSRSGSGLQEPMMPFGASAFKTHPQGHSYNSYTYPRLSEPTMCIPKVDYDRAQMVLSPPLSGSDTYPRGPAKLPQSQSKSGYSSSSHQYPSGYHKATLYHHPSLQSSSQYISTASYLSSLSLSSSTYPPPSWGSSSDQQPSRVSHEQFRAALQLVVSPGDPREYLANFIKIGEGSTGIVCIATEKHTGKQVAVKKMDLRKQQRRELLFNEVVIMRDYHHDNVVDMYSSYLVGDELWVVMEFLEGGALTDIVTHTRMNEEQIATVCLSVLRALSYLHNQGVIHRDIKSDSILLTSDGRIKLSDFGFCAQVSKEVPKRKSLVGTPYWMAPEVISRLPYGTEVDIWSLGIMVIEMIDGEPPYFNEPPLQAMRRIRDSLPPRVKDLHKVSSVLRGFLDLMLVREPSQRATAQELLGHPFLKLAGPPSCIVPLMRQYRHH

Block 1
Target: Macrophage colony-stimulating factor 1 receptor (CSF1R, Homo sapiens, UniProt P07333)
Sequence of UniProt P07333 (whole entry, looked up): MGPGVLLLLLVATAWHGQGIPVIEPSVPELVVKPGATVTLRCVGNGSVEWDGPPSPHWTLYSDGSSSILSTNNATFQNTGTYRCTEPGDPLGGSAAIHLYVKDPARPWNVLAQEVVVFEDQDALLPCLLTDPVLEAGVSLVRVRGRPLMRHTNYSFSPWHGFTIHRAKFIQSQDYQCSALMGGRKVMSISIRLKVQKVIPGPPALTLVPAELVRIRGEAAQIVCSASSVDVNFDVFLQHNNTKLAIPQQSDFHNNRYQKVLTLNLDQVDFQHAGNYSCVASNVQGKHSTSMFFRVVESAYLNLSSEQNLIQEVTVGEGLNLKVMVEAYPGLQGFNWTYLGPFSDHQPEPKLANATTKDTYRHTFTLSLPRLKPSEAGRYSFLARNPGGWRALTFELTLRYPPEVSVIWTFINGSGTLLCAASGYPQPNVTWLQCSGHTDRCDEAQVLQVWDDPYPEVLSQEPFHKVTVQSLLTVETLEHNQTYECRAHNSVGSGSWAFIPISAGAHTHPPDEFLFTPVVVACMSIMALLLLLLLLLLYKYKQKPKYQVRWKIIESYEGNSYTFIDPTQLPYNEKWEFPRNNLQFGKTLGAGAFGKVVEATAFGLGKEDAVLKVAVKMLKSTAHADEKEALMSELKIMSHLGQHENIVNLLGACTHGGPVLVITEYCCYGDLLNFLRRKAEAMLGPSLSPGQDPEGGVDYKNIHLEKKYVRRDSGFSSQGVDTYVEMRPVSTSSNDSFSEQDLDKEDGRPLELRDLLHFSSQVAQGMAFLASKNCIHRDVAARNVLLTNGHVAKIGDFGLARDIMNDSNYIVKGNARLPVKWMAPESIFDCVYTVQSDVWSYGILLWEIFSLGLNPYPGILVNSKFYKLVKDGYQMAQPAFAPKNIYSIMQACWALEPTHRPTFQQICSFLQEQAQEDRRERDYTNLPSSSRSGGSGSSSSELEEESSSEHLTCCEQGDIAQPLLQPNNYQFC
Observed: enzyme activity
Mode: inhibitor
Concentration: 0.5 µM
Reference: control
Endpoint: remaining activity
SMILES = Cc1nc2cc3nc(-c4cccs4)cnc3cc2n1C; result = 63.5%
SMILES = c1ccc(-c2cnc(Nc3ccc(OCCN4CCCC4)cc3)s2)cc1; result = 38.4%
SMILES = c1ccc(-c2[nH]ncc2-c2ccnc3ccccc23)nc1; result = 95.5%
SMILES = N#Cc1c(NC(=O)c2cccc3ccccc23)sc2c1CCCC2; result = 97.2%
SMILES = CCN(CC)CCNC(=O)c1c(C)[nH]c(/C=C2\C(=O)Nc3ccc(Cl)cc32)c1C; result = 7.41%
SMILES = O=C1C(Cl)=C(N2C(=O)CCC2=O)C(=O)c2ccccc21; result = 102%
SMILES = COc1cc2ncnc(Nc3ccc(O)c(Br)c3)c2cc1OC; result = 95.2%
SMILES = O=C(Nc1cccc(Nc2nccc(Nc3cccc(C(F)(F)F)c3)n2)c1)C1CC1; result = 63.1%
SMILES = O=C(NC(NC(=S)Nc1ccc(F)c([N+](=O)[O-])c1)C(Cl)(Cl)Cl)C(c1ccccc1)c1ccccc1 (centres unmarked); result = 96.2%

Block 2
Target: TAR DNA-binding protein 43, full length, His tag (TARDBP, Homo sapiens, UniProt Q13148, residues 1-414)
Technique: RNA Bind-n-Seq
Form: RNA
Matrix: in vitro
Concentration: 20 nM
Setting: 6-mer, flanks averaged, single round
With: 150 mM KCl
Reference: input library
Reading: higher = stronger binding
Endpoint: 6-mer enrichment (R)
Strand = CACAUC; result = 0.594
Strand = CGUCAA; result = 0.664
Strand = UAGCAA; result = 0.669
Strand = AGGCCG; result = 1.44
Strand = CAAGUC; result = 0.609
Strand = GCUGAU; result = 0.793
Strand = UCCACA; result = 0.589
Strand = GGAAUC; result = 0.878

Block 3
Target: Centromere-binding protein 1, full length, His-tagged (CBF1, Saccharomyces cerevisiae, UniProt P17106, residues 1-351)
Sequence of UniProt P17106 (whole entry, looked up): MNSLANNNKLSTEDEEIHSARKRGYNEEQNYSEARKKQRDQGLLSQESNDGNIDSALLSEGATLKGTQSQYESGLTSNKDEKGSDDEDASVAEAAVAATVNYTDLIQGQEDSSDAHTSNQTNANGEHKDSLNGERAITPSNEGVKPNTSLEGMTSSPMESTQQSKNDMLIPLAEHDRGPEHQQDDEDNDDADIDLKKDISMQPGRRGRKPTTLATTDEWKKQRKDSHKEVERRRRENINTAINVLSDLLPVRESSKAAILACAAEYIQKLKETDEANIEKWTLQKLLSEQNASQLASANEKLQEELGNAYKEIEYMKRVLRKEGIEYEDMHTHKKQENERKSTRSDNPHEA
Technique: competition protein-binding microarray
Form: double-stranded DNA, one strand shown
Matrix: in vitro
Concentration: 2 µM
Setting: whole 60-bp probe, lowest competitor level
With: Pho4 competitor, 0.05 µM
Reading: higher = stronger binding
Endpoint: fluorescence intensity
All sequences stand within: … GTCTTGATTCGCTTGACGCTGCTG
Strand = CTAACGAAGGTTTGATCCGTGGGTGACAAGCCAAGT; result = 59.7 a.u.
Strand = AAAGCGGTAATTTTTCACGTGTGATCAAATATCTAT; result = 1200 a.u.
Strand = GGCCACGGCACAAATATGATGTAGTACTAAGATTTT; result = 73 a.u.
Strand = CACCGTCTTCCGCCGCACGTGGATTCAGCGCGATGC; result = 611 a.u.
Strand = AAAGCGGTAATTTGCAGTGTGGGTGCAGATATCTAT; result = 70.2 a.u.
Strand = CATACCCAACCTTGGGATGTGGGTGAAGATATTTGT; result = 67.3 a.u.
Strand = CATACCCAACCTTGTCACGTGGGTGAAGATATTTGT; result = 4130 a.u.
Strand = CTAACGAAGGTTTGACTTGTGGGTGACAAGCCAAGT; result = 82.1 a.u.

Block 4
Compound: CCOC(=O)c1cc2cc(-c3cc(C(=O)NCc4ccc(C(=O)O)cc4)nn3C)ccc2[nH]1
Observed: cell-free assay
Technique: competition with immobilised ligand
Concentration: 0.1 µM
Endpoint: remaining binding
target = Tyrosine-protein kinase ABL1, phosphorylated (ABL1, Homo sapiens, UniProt P00519, F317L); result = 100%
target = Mitogen-activated protein kinase kinase kinase 7 (MAP3K7, Homo sapiens, UniProt O43318); result = 80%
target = Mast/stem cell growth factor receptor Kit (KIT, Homo sapiens, UniProt P10721, T670I/V559D); result = 96%
target = Activin receptor type-1 (ACVR1, Homo sapiens, UniProt Q04771); result = 84%
target = Receptor tyrosine-protein kinase erbB-4 (ERBB4, Homo sapiens, UniProt Q15303); result = 96%
target = Dual specificity mitogen-activated protein kinase kinase 4 (MAP2K4, Homo sapiens, UniProt P45985); result = 93%
target = Serine/threonine-protein kinase PAK 5 (PAK5, Homo sapiens, UniProt Q9P286); result = 95%

For quick reference, copied from above (block 1):
SMILES = COc1cc2ncnc(Nc3ccc(O)c(Br)c3)c2cc1OC; result = 95.2%
SMILES = O=C(NC(NC(=S)Nc1ccc(F)c([N+](=O)[O-])c1)C(Cl)(Cl)Cl)C(c1ccccc1)c1ccccc1 (centres unmarked); result = 96.2%
